Measurements collected from several papers.
Compare with care: the assays were run in different laboratories. Values joined by “and” are separate records of one study, mostly repeats; a detail may differ. Numbers after ± are the reported error.
Chain of UniProt Q8IVT5 (whole entry, looked up): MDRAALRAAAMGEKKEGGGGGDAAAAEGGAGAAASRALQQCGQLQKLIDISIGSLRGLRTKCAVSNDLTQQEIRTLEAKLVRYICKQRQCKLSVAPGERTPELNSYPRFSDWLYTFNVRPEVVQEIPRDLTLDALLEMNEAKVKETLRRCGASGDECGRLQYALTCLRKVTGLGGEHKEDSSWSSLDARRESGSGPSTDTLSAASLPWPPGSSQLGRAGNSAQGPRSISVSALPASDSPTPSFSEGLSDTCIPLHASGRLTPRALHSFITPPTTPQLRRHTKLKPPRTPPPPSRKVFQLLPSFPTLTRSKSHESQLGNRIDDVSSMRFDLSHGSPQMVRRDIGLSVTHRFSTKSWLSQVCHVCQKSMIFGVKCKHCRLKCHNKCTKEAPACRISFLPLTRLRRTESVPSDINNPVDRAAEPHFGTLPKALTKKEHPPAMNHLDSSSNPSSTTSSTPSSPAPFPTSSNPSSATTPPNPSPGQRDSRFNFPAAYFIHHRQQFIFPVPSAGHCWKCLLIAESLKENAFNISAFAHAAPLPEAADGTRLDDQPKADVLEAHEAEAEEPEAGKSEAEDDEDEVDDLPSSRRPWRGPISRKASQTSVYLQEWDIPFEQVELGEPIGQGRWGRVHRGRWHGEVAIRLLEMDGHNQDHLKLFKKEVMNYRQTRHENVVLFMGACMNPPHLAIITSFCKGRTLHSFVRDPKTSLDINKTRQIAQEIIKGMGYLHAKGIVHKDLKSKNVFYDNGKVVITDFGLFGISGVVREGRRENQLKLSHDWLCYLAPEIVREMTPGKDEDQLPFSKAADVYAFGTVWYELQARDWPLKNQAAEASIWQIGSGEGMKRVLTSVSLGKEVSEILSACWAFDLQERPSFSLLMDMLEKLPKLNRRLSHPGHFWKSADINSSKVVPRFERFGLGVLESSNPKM
Chain of UniProt P43220 (whole entry, looked up): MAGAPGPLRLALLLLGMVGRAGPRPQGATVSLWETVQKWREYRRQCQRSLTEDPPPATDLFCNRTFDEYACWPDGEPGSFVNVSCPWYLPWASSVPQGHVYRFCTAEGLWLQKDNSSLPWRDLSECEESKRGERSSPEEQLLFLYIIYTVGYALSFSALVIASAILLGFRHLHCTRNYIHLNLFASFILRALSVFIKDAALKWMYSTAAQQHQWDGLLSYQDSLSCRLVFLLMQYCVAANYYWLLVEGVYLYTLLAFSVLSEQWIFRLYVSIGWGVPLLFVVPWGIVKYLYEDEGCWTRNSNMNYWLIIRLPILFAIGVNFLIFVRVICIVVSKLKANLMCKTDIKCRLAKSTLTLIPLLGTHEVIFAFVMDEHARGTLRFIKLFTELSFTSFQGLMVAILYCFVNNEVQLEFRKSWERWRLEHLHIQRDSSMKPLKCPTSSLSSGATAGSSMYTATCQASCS

| Compound | target or system | assay | system | conditions | scale | measurement | result |
| --- | --- | --- | --- | --- | --- | --- | --- |
| CC(C)(c1ccc(O)cc1)c1ccc(O)cc1 | HepG2 spheroids | annexin V-FITC/PI flow cytometry |  | 40 µM, 24 h |  | necrotic cells | 11.1 ± 1.79% |
| N#C[C@@]1(n2ccc(N)nc2=O)O[C@H](CO)[C@@H](O)[C@H]1O | CHO |  |  | 8 µM, with S9 |  | micronucleated cells | 0.42% |
| CC(C)(Oc1ccc(CCNC(=O)c2ccc(Cl)cc2)cc1)C(=O)O | HEK293-H PPARγ-UAS-bla cells | cell viability, IncuCyte imaging |  | 24 h, freely dissolved concentration |  | IC10 | 1440 µM |
| C#CCN(C)Cc1ccc(O)c2ncccc12 | LUHMES MT1G-HiBiT neurons, differentiated |  |  | concentration not given |  | cytotoxicity | toxic |
| O=C(O)C(F)(F)C(F)(F)C(F)(F)C(F)(F)F | hTERT-RPTEC parental | LDH release | culture medium | concentration not given, 24 h, 96-well plate |  | LDH activity in medium | 25.9 mU/mL |
| N=C(N)NCCC[C@H](NC(=O)CN)C(=O)N[C@@H](Cc1c[nH]c2ccccc12)C(=O)N[C@@H](CCCNC(=N)N)C(=O)N[C@@H](Cc1c[nH]c2ccccc12)C(=O)N[C@@H](Cc1c[nH]c2ccccc12)C(=O)N[C@@H](Cc1c[nH]c2ccccc12)C(=O)N[C@@H](CCCNC(=N)N)C(=O)N[C@@H](Cc1c[nH]c2ccccc12)C(=O)N[C@@H](CCCNC(=N)N)C(=O)N[C@@H](Cc1c[nH]c2ccccc12)C(N)=O | HD11 macrophages |  |  |  |  | LC50 | 316 µM |
| Cc1cc(C(C)(C)c2ccc(O)c(C)c2)ccc1O | HepG2 spheroids | propidium iodide staining |  | concentration not given, 24 h |  | necrotic cells | decreased |
| Nc1nc(CCc2ccccc2)c(Br)c(=O)[nH]1 | HEL human embryonic lung fibroblasts | cell morphology alteration |  |  |  | minimum cytotoxic concentration | > 100 µM |
| Oc1ccc(C2(c3ccc(O)cc3)c3ccccc3-c3ccccc32)cc1 | HepG2 spheroids, dissociated | annexin V-FITC/PI flow cytometry |  | 10 µM, 96 h |  | late apoptotic cells | 42.9 ± 2.4% |
| Cc1cc(C(=O)NC(C)(C)COc2cccc3c2C(N)=NS(=O)(=O)N3)cc(C)n1 | Salmonella typhimurium | Ames test, confirmatory | TA1537 | 3333 µg/plate, with: rat liver S9 | baseline: solvent control | revertant ratio | 0.9 |
| C#CC[C@H](NC(=O)[C@H](CCCCN)NC(=O)[C@H](CCCCN)NC(=O)[C@H](Cc1c[nH]c2ccccc12)NC(=O)[C@H](CCCCN)NC(=O)[C@H](CCSC)NC(=O)[C@H](CCCNC(=N)N)NC(=O)[C@H](CCCNC(=N)N)NC(=O)[C@H](CC(N)=O)NC(=O)[C@H](CCC(N)=O)NC(=O)[C@H](Cc1ccccc1)NC(=O)[C@H](Cc1c[nH]c2ccccc12)NC(=O)[C@@H](NC(=O)[C@H](CCCCN)NC(=O)[C@@H](NC(=O)[C@H](CCC(N)=O)NC(=O)[C@@H](N)CCCNC(=N)N)[C@@H](C)CC)[C@@H](C)CC)C(=O)N[C@@H](CC(N)=O)C(=O)N[C@@H](Cc1c[nH]cn1)C(=O)N[C@H](C(=O)N[C@@H](CCSC)C(=O)N[C@@H](CC(C)C)C(=O)N[C@@H](CC(N)=O)C(=O)N[C@@H](Cc1c[nH]cn1)C(=O)N[C@@H](CC(C)C)C(=O)N[C@@H](Cc1ccc(O)cc1)C(=O)N[C@@H](C)C(=O)N[C@@H](CC(C)C)C(=O)N[C@@H](CO)C(=O)N[C@H](C(=O)N[C@@H](CCCCN)C(=O)N[C@@H](CC(=O)O)C(=O)NCC(=O)N[C@H](C(N)=O)C(C)C)[C@@H](C)CC)C(C)C | SW480 |  |  | 2.2 µM, three days |  | cell growth | no effect |
| CCCc1nc(N)[nH]c(=O)c1Br | HEL human embryonic lung fibroblasts | cell morphology alteration |  |  |  | minimum cytotoxic concentration | > 100 µM |
| O=c1nc(NO)ccn1[C@@H]1O[C@H](CO)[C@@H](O)[C@H]1O | human PBM cells | cytotoxicity |  |  |  | CC50 | 45.7 ± 3.1 µM |
| CC(C)(Oc1ccc(Cl)cc1)C(=O)O | HEK293-H PPARγ-UAS-bla cells | cell confluency, IncuCyte imaging |  | 24 h, nominal concentration |  | IC10 | 1410 µM |
| Nc1nc(O)c2ncn(COC(CO)CO)c2n1 | HEL human embryonic lung fibroblasts | cell morphology alteration |  |  |  | minimum cytotoxic concentration | > 100 µM |
| COc1cc2c(c(OC)c1OC)-c1ccc(OC)c(=O)cc1[C@@H](NC(C)=O)CC2 | CHO-WBL |  |  | 0.16 µg/mL, 19 h, without S9 |  | binucleated cells with micronuclei | 5.8% |
| C[C@H]1CN(c2n[nH]c3nc(N[C@H]4CC[C@H](NS(=O)(=O)CCC(F)(F)F)CC4)ncc23)CCO1 | KSR1 (Homo sapiens, UniProt Q8IVT5) | inhibitor, Kinobeads competition profiling |  | 0.16 µM | baseline: vehicle | relative abundance | 0.97 |
| Nc1cnn(-c2ccccc2)c(=O)c1Cl | HEK293-H PPARγ-UAS-bla cells | cell viability, IncuCyte imaging |  | 24 h, freely dissolved concentration |  | IC10 | 1260 µM |
| COc1cc(Nc2ncc(F)c(Nc3ccc4c(n3)NC(=O)C(C)(C)O4)n2)cc(OC)c1OC | GLP1R (Homo sapiens, UniProt P43220) | binding |  |  |  | IC50 | > 10 µM |

| Compound | target or system | assay | system | conditions | scale | measurement | result |
| --- | --- | --- | --- | --- | --- | --- | --- |
| CNC(=O)Oc1cc(C)c(SC)c(C)c1 | SH-SY5Y | cell viability, propidium iodide staining |  | 24 h, freely dissolved concentration |  | IC10 | 0.025 µM |
| N=C(N)NCCC[C@H](NC(=O)[C@H](Cc1c[nH]c2ccccc12)NC(=O)[C@H](CCCNC(=N)N)NC(=O)[C@H](Cc1c[nH]c2ccccc12)NC(=O)[C@H](Cc1c[nH]c2ccccc12)NC(=O)[C@H](Cc1c[nH]c2ccccc12)NC(=O)[C@H](CCCNC(=N)N)NC(=O)[C@H](Cc1c[nH]c2ccccc12)NC(=O)[C@H](CCCNC(=N)N)NC(=O)CN)C(N)=O | HD11 macrophages |  |  |  |  | LC50 | > 512 µM |
| N=C(N)NCCC[C@H](NC(=O)[C@H](CCCNC(=N)N)NC(=O)[C@H](CCCCN)NC(=O)[C@H](CCCNC(=N)N)NC(=O)[C@H](Cc1ccccc1)NC(=O)[C@H](Cc1ccc(O)cc1)NC(=O)[C@H](CCCNC(=N)N)NC(=O)[C@H](CCCNC(=N)N)NC(=O)[C@H](CCCNC(=N)N)NC(=O)[C@H](CCCNC(=N)N)NC(=O)[C@H](CCCNC(=N)N)NC(=O)[C@H](Cc1ccc(O)cc1)NC(=O)[C@H](CCCNC(=N)N)NC(=O)[C@@H](N)CCCNC(=N)N)C(=O)O | DF-1 | LDH release |  | 5 µM, 1 h |  | viability | 95.7 ± 1.4% |
| CC(C)C[C@H](NC(=O)OCc1ccccc1)C(=O)N[C@H](C=O)C[C@@H]1CCCNC1=O | MRC5 | cytotoxicity |  |  |  | CC50 | > 100 µM |
| CN(C)c1ccc(C(Nc2nc3c(-c4ccc([N+](=O)[O-])cc4)nn(-c4ccccc4)c3s2)P(=O)(Oc2ccccc2)Oc2ccccc2)cc1 (stereo not shown) | Vero cells | SRB |  | 0.1 µM, 10% fetal bovine serum |  | viability | 98.5% |
| C[C@H](NC(=O)[C@H](CCCNC(=N)N)NC(=O)[C@H](Cc1c[nH]c2ccccc12)NC(=O)[C@H](CCCNC(=N)N)NC(=O)[C@H](Cc1c[nH]c2ccccc12)NC(=O)[C@H](Cc1c[nH]c2ccccc12)NC(=O)[C@H](Cc1c[nH]c2ccccc12)NC(=O)[C@H](CCCNC(=N)N)NC(=O)[C@H](Cc1c[nH]c2ccccc12)NC(=O)[C@@H](N)CCCNC(=N)N)C(N)=O | HD11 macrophages |  |  |  |  | LC50 | 110 µM |
| O=C(O)C(F)(F)C(F)(F)C(F)(F)F | hTERT-RPTEC parental |  |  | concentration not given, 96-well plate |  | LDH release | 28.9 mU/mL and 14.7 mU/mL and 23.6 mU/mL and 30 mU/mL |
| N=C(N)NCCC[C@H](NC(=O)[C@H](CCCNC(=N)N)NC(=O)[C@H](CCCNC(=N)N)NC(=O)[C@H](CCC(N)=O)NC(=O)[C@H](CCCNC(=N)N)NC(=O)[C@H](CCCNC(=N)N)NC(=O)[C@H](CCCCN)NC(=O)[C@H](CCCCN)NC(=O)[C@H](CCCNC(=N)N)NC(=O)CNC(=O)[C@@H](N)Cc1ccc(O)cc1)C(=O)O | DF-1 | LDH release |  | 5 µM, 1 h |  | viability | 98.1 ± 2.46% |
| COC(=O)/C(C)=C\C[C@@]12OC(C)(C)[C@@H]3C[C@@H](C=C4C(=O)c5c(O)c6c(c(CC=C(C)C)c5O[C@]431)O[C@](C)(CCC=C(C)C)C=C6)C2=O | MYBPC3 iPSC cardiomyocytes | cytotoxicity |  | 24 h |  | EC50 | 15.7 µM |
| CCCCCCCCCC(=O)N[C@@H](Cc1c[nH]c2ccccc12)C(=O)N[C@H](CC(N)=O)C(=O)N[C@@H](CC(=O)O)C(=O)N[C@@H]1C(=O)NCC(=O)N[C@@H](CCCN)C(=O)N[C@@H](CC(=O)O)C(=O)N[C@H](C)C(=O)N[C@@H](CC(=O)O)C(=O)NCC(=O)N[C@H](CO)C(=O)N[C@@H]([C@H](C)CC(=O)O)C(=O)N[C@@H](CC(=O)c2ccccc2N)C(=O)O[C@@H]1C | human erythrocytes | haemolysis |  |  |  | LC50 | 103 µM |
| COc1ccc(CCN2CCC(Nc3nc4ccccc4n3Cc3ccc(F)cc3)CC2)cc1 | 293T-ACE2 |  |  | 40 (unit not given) |  | CC50 | > 2.5 µM |
| COc1cc2c(Oc3ccc4[nH]c(C)cc4c3F)ccnc2cc1OCC1(N)CC1 |  |  | paediatric refractory sarcoma patients | 10 mg |  | grade 3 mouth ulcer | 0% |
| CC(c1ccccc1)(c1ccc(O)cc1)c1ccc(O)cc1 | HepG2 spheroids | annexin V-FITC/PI flow cytometry |  | 1 µM, 96 h |  | late apoptotic cells | 33.6 ± 12.4% |
| CCNC/C=C\CNCCCCNCCCCNC/C=C\CNCC | 293T-ACE2 |  |  | 40 (unit not given) |  | CC50 | > 2.5 µM |
| CC[C@@H](C)[C@H]1O[C@@H](c2c(O)c(-c3ccccc3)cn(OC)c2=O)[C@H](C)C[C@@H]1C | LLC-PK11, SK-OV-3, BT-549, KB, SK-MEL |  |  | concentration not given |  | cytotoxicity | inactive |
| CO[C@H]1C[C@@H]2CC[C@@H](C)[C@@](O)(O2)C(=O)C(=O)N2CCCC[C@H]2C(=O)O[C@H]([C@H](C)C[C@@H]2CC[C@@H](OC(=O)NCCOCCOCCOCCOCCOCCOCCOCCOCCC(=O)N3CCc4cc(Cn5nc(-c6ccc7oc(N)nc7c6)c6c(N)ncnc65)ccc4C3)[C@H](OC)C2)C[C@@H](O)[C@H](C)/C=C(\C)[C@@H](O)[C@@H](OC)C(=O)[C@H](C)C[C@H](C)/C=C/C=C/C=C/1C |  |  | patients with advanced solid tumours | intravenous, 6 mg weekly, any grade |  | constipation incidence | 25% |
| O=c1ccc2ccccc2o1 | NHEK | cell count |  | concentration not given, 24 h, phospholipidosis and steatosis panel |  | chance response | 0.45% |
| CN1CC[C@@H](c2c(O)cc(O)c3c(=O)cc(-c4ccc(C(F)(F)F)cc4Cl)oc23)[C@@H]1CO |  | refers to: Hypoalbuminemia | relapsed AML | oral, 100 mg, grade 3-4, intermittent dosing |  | patients with adverse event | 0% |

Repeated from above:
| Compound | target or system | assay | system | conditions | scale | measurement | result |
| --- | --- | --- | --- | --- | --- | --- | --- |
| C[C@H]1CN(c2n[nH]c3nc(N[C@H]4CC[C@H](NS(=O)(=O)CCC(F)(F)F)CC4)ncc23)CCO1 | KSR1 (Homo sapiens, UniProt Q8IVT5) | inhibitor, Kinobeads competition profiling |  | 0.16 µM | baseline: vehicle | relative abundance | 0.97 |
| Nc1cnn(-c2ccccc2)c(=O)c1Cl | HEK293-H PPARγ-UAS-bla cells | cell viability, IncuCyte imaging |  | 24 h, freely dissolved concentration |  | IC10 | 1260 µM |
| COc1cc(Nc2ncc(F)c(Nc3ccc4c(n3)NC(=O)C(C)(C)O4)n2)cc(OC)c1OC | GLP1R (Homo sapiens, UniProt P43220) | binding |  |  |  | IC50 | > 10 µM |
| CC(C)(c1ccc(O)cc1)c1ccc(O)cc1 | HepG2 spheroids | annexin V-FITC/PI flow cytometry |  | 40 µM, 24 h |  | necrotic cells | 11.1 ± 1.79% |
| CCCCCCCCCC(=O)N[C@@H](Cc1c[nH]c2ccccc12)C(=O)N[C@H](CC(N)=O)C(=O)N[C@@H](CC(=O)O)C(=O)N[C@@H]1C(=O)NCC(=O)N[C@@H](CCCN)C(=O)N[C@@H](CC(=O)O)C(=O)N[C@H](C)C(=O)N[C@@H](CC(=O)O)C(=O)NCC(=O)N[C@H](CO)C(=O)N[C@@H]([C@H](C)CC(=O)O)C(=O)N[C@@H](CC(=O)c2ccccc2N)C(=O)O[C@@H]1C | human erythrocytes | haemolysis |  |  |  | LC50 | 103 µM |
| CC(C)(Oc1ccc(Cl)cc1)C(=O)O | HEK293-H PPARγ-UAS-bla cells | cell confluency, IncuCyte imaging |  | 24 h, nominal concentration |  | IC10 | 1410 µM |
